Experimental data of several laboratories.
± gives the spread as reported.
Oprd1: Delta-type opioid receptor (Oprd1, Rattus norvegicus, UniProt P33533)
WDR5: WD repeat-containing protein 5 (WDR5, Homo sapiens, UniProt P61964)
OPRK1: Kappa-type opioid receptor (OPRK1, Cavia porcellus, UniProt P41144)
CA1: Carbonic anhydrase 1 (CA1, Homo sapiens, UniProt P00915)

Cc1cc(O)cc(C)c1C[C@H](N)C(=O)N[C@H](CCCNC(=N)N)C(=O)N[C@@H](Cc1ccccc1)C(=O)N[C@@H](CCCCN)C(=O)N[C@H]1CCCC[C@@H]1NC(=O)[C@H](Cc1ccccc1)NC(=O)[C@H](CC1CCCCC1)NC[C@@H]1Cc2ccccc2CN1C(=O)[C@@H](N)Cc1ccc(O)cc1  Ki (Oprd1; ligand displacement, radioligand; cell membranes): 21.8 nM
CC[C@@H]1NC(=O)[C@H](CCCNC(=N)N)NC(=O)[C@H](NC(=O)C(C)C)CCNC(=O)c2cc(F)c(c(F)c2)N=Nc2c(F)cc(cc2F)C(=O)NCCNC(=O)[C@@H](Cc2ccccc2)NC1=O  Ki (WDR5; binding, inhibitor, competitive fluorescence polarization; trans isomer, 405 nm photostationary state): 79 nM
Cc1cc(O)cc(C)c1C[C@H](N)C(=O)N[C@@H]1CCCCC[C@@H](C(N)=O)NC(=O)[C@H](Cc2ccccc2)NC(=O)[C@H](Cc2ccccc2)NC1=O  Ki (OPRK1; ligand displacement, radioligand; cell membranes): 15.8 nM
O=S(=O)(N/N=C/c1ccc(OS(=O)(=O)c2ccccc2)cc1)c1ccc(Cl)cc1  Ki (CA1; enzyme activity, inhibitor, absorbance): 478 nM
Cc1cc(O)cc(C)c1CCC(=O)N[C@@H]1C/C=C/CC[C@@H](C(N)=O)NC(=O)[C@H](Cc2ccccc2)NC(=O)[C@H](Cc2ccccc2)NC1=O  Ki (OPRK1; ligand displacement, radioligand; cell membranes): > 500 nM
O=S(=O)(N/N=C/c1ccc(OS(=O)(=O)c2ccc(Cl)cc2)cc1)c1cc(Cl)ccc1Cl  Ki (CA1; enzyme activity, inhibitor, absorbance): 24.4 nM
COc1cc2c(cc1O)C(CCc1ccc(Cl)cc1)N(C)CC2 (stereo not drawn)  Ki (Alpha-1A adrenergic receptor (ADRA1A, Homo sapiens, UniProt P35348); cell-free assay, radioligand): 2400 nM
O=C(Cc1ccc(Cl)c(Cl)c1)N1CCN[C@@H]2COC[C@H](N3CCCC3)[C@H]21  Ki (Delta-type opioid receptor (OPRD1, Homo sapiens, UniProt P41143); ligand displacement, radioligand; cell membranes): > 10000 nM
Cc1cc(O)cc(C)c1C[C@H](N)C(=O)N[C@H](CCCNC(=N)N)C(=O)N[C@@H](Cc1ccccc1)C(=O)N[C@@H](CCCCN)C(=O)NCCCCCCCCCCNC(=O)[C@H](Cc1ccccc1)NC(=O)[C@H](CC1CCCCC1)NC[C@@H]1Cc2ccccc2CN1C(=O)[C@@H](N)Cc1ccc(O)cc1  Ki (Oprd1; ligand displacement, radioligand; cell membranes): 15.3 nM
C[C@@H](Cc1ccsc1)NC(=O)NC[C@H](Cc1ccc(O)cc1)N(C)C  Ki (Muscarinic acetylcholine receptor M2 (CHRM2, Homo sapiens, UniProt P08172); cell-free assay): 4400 nM
O=[N+]([O-])c1ccc(S(=O)(=O)Oc2ccc(/C=N/NS(=O)(=O)c3cc(Cl)ccc3Cl)cc2)cc1  Ki (CA1; enzyme activity, inhibitor, absorbance): 9.12 nM
CC[C@@H]1NC(=O)[C@H](CCCNC(=N)N)NC(=O)[C@H](NC(=O)C(C)C)CCCCNC(=O)c2cc(F)c(c(F)c2)N=Nc2c(F)cc(cc2F)C(=O)NCCNC(=O)[C@@H](Cc2ccccc2)NC1=O  Ki (WDR5; binding, inhibitor, competitive fluorescence polarization; trans isomer, 405 nm photostationary state): 831 nM
O=C1c2ccccc2CCCN1CCCCN1CCN(c2cccc(Cl)c2Cl)CC1  Ki (D(3) dopamine receptor (DRD3, Homo sapiens, UniProt P35462); ligand displacement, radioligand): 1 nM
Cc1cc(O)cc(C)c1CCC(=O)N[C@@H]1CCCCC[C@@H](C(N)=O)NC(=O)[C@H](Cc2ccccc2)NC(=O)[C@H](Cc2ccccc2)NC1=O  Ki (Oprd1; ligand displacement, radioligand; cell membranes): 39.2 nM
CCCCCCCCOC1OC(C)C(OC2OC(C)C(OC3OC(C)C(OC4OC(C)C(OS(=O)(=O)O)C(OS(=O)(=O)O)C4OS(=O)(=O)O)C(OS(=O)(=O)O)C3OS(=O)(=O)O)C(OS(=O)(=O)O)C2OS(=O)(=O)O)C(OS(=O)(=O)O)C1OS(=O)(=O)O (stereo not drawn)  Ki (Heparanase (HPSE, Homo sapiens, UniProt Q9Y251); enzyme activity, inhibitor): 6.9 nM
Cc1cc(O)cc(C)c1C[C@H](N)C(=O)N[C@H](CCCNC(=N)N)C(=O)N[C@@H](Cc1ccccc1)C(=O)N(C)CC(=O)N(C)Cc1cc(C(F)(F)F)cc(C(F)(F)F)c1  Ki (Delta-type opioid receptor (OPRD1, Homo sapiens, UniProt P41143, Y308F)): 13 nM
NC(=O)[C@@H]1CC/C=C\C[C@@H](NC(=O)[C@@H](N)Cc2ccc(O)cc2)C(=O)N[C@@H](Cc2ccccc2)C(=O)N[C@@H](Cc2ccccc2)C(=O)N1  Ki (Oprd1; ligand displacement, radioligand; cell membranes): 0.91 nM
Cc1cc(=O)oc2cc(OCCCCCC[Se]C#N)ccc12  Ki (CA1; enzyme activity, inhibitor, stopped-flow): > 100000 nM
CC[C@@H]1NC(=O)[C@H](CCCNC(=N)N)NC(=O)[C@H](NC(=O)C(C)C)CNC(=O)c2cc(F)c(c(F)c2)N=Nc2c(F)cc(cc2F)C(=O)NCCNC(=O)[C@@H](c2ccccc2)NC1=O  Ki (WDR5; binding, inhibitor, competitive fluorescence polarization; cis isomer, 520 nm photostationary state): 79 nM
CN1CCN(c2cccc3c2ccn3Cc2ccccc2)CC1  Ki (D(2) dopamine receptor, long isoform (DRD2, Homo sapiens, UniProt P14416); binding, radioligand displacement; HEK293 membranes; 1 h, 37 °C, added: [3H]-raclopride): 305 ± 26 nM
COc1ccc(-n2nc3c4cc(Cl)ccc4[nH]cc-3c2=O)cc1  Ki (Gabrg2/Gabra6, α6+/γ2− interface (Rattus norvegicus, UniProt P18508+P30191); rat cerebellar membranes; added: [3H]Ro15-4513, diazepam 50 mM): 0.55 ± 0.04 nM
C[C@@H](CN1CCC(Cc2ccccc2)CC1)[C@@H](O)c1ccc(O)cc1  Ki (Sodium-dependent serotonin transporter (SLC6A4, Homo sapiens, UniProt P31645); binding, inhibitor): 1420 nM
O=S(=O)(N/N=C/c1ccc(OS(=O)(=O)c2ccccc2)cc1)c1cc(Cl)ccc1Cl  Ki (CA1; enzyme activity, inhibitor, absorbance): 51.4 nM
NC1CCSC1=O (stereo not drawn)  Ki (CA1; enzyme activity, inhibitor, stopped-flow): > 100000 nM
CN(C)[C@H](CNC(=O)/C=C/c1cccc2ccccc12)Cc1ccc(O)cc1  Ki (Orexin receptor type 2 (HCRTR2, Homo sapiens, UniProt O43614)): > 50000 nM
Cc1cc(O)cc(C)c1C[C@H](N)C(=O)N[C@H](CCCNC(=N)N)C(=O)N[C@@H](Cc1ccccc1)C(=O)N[C@@H](CCCCN)C(=O)NCCCCCC(=O)N[C@@H](CCCCNC(=O)CN1CCN(CC(=O)O)CCN(CC(=O)O)CCN(CC(=O)O)CC1)C(N)=O  Ki (OPRK1; ligand displacement, radioligand; cell membranes): 185 nM
Cc1cc(O)cc(C)c1C[C@H](N)C(=O)N[C@H](CCCNC(=N)N)C(=O)N[C@@H](Cc1ccccc1)C(=O)N[C@@H](CCCCN)C(=O)N[C@H]1CC[C@H](NC(=O)[C@H](Cc2ccccc2)NC(=O)[C@H](CC2CCCCC2)NC[C@@H]2Cc3ccccc3CN2C(=O)[C@@H](N)Cc2ccc(O)cc2)CC1  Ki (Oprd1; ligand displacement, radioligand; cell membranes): 5.79 nM
COc1ccc(CC[C@H]2OC(=O)[C@@H]3CCCCN3C(=O)C(=O)C(C)(C)COC(=O)/C=C/CCN(C)C(=O)[C@H](CC(C)C)N(C)C(=O)[C@@H]3CCCN3C(=O)[C@H](Cc3ccccc3)N(C)C(=O)[C@H](c3ccccc3)NC(=O)CCC(=O)Nc3cccc2c3)cc1OC  Ki (Peptidyl-prolyl cis-trans isomerase FKBP3 (Homo sapiens, UniProt Q00688); enzyme activity, inhibitor): > 5000 nM
Cc1cc(O)cc(C)c1C[C@H](N)C(=O)N[C@H](CCCNC(=N)N)C(=O)N[C@@H](Cc1ccccc1)C(=O)N[C@@H](CCCCNC(=O)CN1CCN(CC(=O)O)CCN(CC(=O)O)CCN(CC(=O)O)CC1)C(N)=O  Ki (OPRK1; guinea pig): 160 ± 22 nM
CC[C@@H]1NC(=O)[C@H](CCCNC(=N)N)NC(=O)[C@H](NC(=O)C(C)C)CNC(=O)c2cc(F)c(c(F)c2)N=Nc2c(F)cc(cc2F)C(=O)NCCNC(=O)[C@@H](Cc2ccccc2)NC1=O  Ki (WDR5; binding, inhibitor, competitive fluorescence polarization; trans isomer, 405 nm photostationary state): 448 nM
N=C(N)NCCC[C@@H]1NC(=O)[C@@H](Cc2ccc(O)cc2)NC(=O)[C@@H](CCCCN)NC(=O)[C@@H](Cc2ccccc2)NC1=O  Ki (OPRK1; ligand displacement, radioligand; cell membranes): 389 nM
COC1c2cc(C(C)C)c(O)c(O)c2C23CCCC(C)(C)C2C1OC3=O (stereo not drawn)  Ki (CA1; enzyme activity, inhibitor): 0.85 nM
O=C(CCN1C=C/C(=C\c2sc3ccccc3[n+]2CCC(=O)NCCCCCCNc2c3c(nc4ccccc24)CCCC3)c2ccccc21)NCCCCCCNc1c2c(nc3ccccc13)CCCC2  Ki (Acetylcholinesterase (ACHE, Homo sapiens, UniProt P22303); enzyme activity, inhibitor, Ellman; pH 8): 0.31 nM
Cc1cc(O)cc(C)c1C[C@H](N)C(=O)N[C@@H]1C/C=C/CC[C@@H](C(N)=O)NC(=O)[C@H](Cc2ccccc2)NC(=O)[C@H](Cc2ccccc2)NC1=O  Ki (Oprd1; ligand displacement, radioligand; cell membranes): 0.286 nM
COc1c(C(C)C)cc2c(c1O)[C@@]1(C(=O)O)CCCC(C)(C)C1CC2 (stereo partly drawn)  Ki (CA1; enzyme activity, inhibitor): 1.18 nM
COc1ccc2c(c1)c(CCN(C)C)cn2Cc1ccccc1  Ki (5-hydroxytryptamine receptor 1A (HTR1A, Homo sapiens, UniProt P08908); ligand displacement, radioligand; cell membranes): 379 nM
